Assay results pooled from the literature.
Lines come from different studies, so protocols differ. Values joined by “and” are separate records of one study, mostly repeats; a detail may differ. ± marks the error that the study gave. Values after ≈ are worked out from the molar mass of the structure shown.
Sequence of UniProt Q9UNQ0 (whole entry, looked up): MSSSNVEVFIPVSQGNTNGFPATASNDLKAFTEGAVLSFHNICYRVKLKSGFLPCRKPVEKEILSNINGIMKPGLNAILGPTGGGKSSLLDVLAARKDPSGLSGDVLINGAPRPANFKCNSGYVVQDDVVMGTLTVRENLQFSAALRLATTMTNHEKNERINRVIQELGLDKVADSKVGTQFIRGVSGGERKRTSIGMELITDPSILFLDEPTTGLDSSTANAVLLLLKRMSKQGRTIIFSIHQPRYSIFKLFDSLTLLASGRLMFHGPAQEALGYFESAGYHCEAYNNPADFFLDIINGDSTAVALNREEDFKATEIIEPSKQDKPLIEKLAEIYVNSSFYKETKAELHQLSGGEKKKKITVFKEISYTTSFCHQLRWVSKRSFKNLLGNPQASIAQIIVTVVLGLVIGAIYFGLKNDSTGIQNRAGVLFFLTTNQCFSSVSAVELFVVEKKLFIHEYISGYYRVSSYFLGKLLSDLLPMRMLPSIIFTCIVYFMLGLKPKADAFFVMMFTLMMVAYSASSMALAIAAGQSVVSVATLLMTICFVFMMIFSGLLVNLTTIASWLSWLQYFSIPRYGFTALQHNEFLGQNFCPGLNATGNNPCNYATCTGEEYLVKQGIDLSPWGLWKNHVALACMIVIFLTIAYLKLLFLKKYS

Cc1ccc(OCCN(C)C)cc1C(=O)N[C@H](C)c1cc(-c2cnn(C(C)C)c2)nc2ccccc12
viability (Vero E6; 3.906 µM): 103% and 90.7%

COc1ccc2c3c1O[C@H]1[C@@H](O)CC[C@H]4[C@@H](C2)N(CCc2ccccc2)CC[C@@]341
Δlog K, saturation effect (pH-potentiometric titration; reference: O-methyl derivative): 0.54 log units

Cc1ccc(OCCN(C)C)cc1C(=O)N[C@H](C)c1cc(-c2ccc(C#N)nc2)nc2ccccc12
viability (Vero E6; 31.25 µM): 41.2% and 29.2%

COc1ccc2c3c1O[C@H]1[C@H](O)C=C[C@H]4[C@@H](C2)N(C)CC[C@@]341
Papp (PAMPA-BBB; porcine brain lipid; 500 µM, 4 h, pH 7.4, 1% DMSO): 22.6 ×10⁻⁶ cm/s

[2H]C([2H])([18F])[C@]([2H])(N)C(=O)O
tracer uptake (U-87 MG tumour model; host not given, bone; 110 min, tumour-bearing): 10.8 %ID/g

CC[C@H](C)[C@H](NC(=O)[C@H](CCCCN)NC(=O)[C@H](CCCCN)NC(=O)[C@H](Cc1ccccc1)NC(=O)[C@H](Cc1ccccc1)NC(=O)[C@H](CCCCN)NC(=O)[C@H](CCCCN)NC(=O)[C@H](Cc1ccccc1)NC(=O)[C@H](CCCNC(=N)N)NC(=O)[C@@H](N)CCCCN)C(=O)N[C@@H](CCCCN)C(=O)N[C@@H](CCCCN)C(=O)N[C@@H](CO)C(=O)N[C@H](C(=O)N[C@@H](CCCCN)C(=O)N[C@@H](CCCCN)C(=O)N[C@@H](CCCNC(=N)N)C(=O)N[C@H](C(=O)N[C@@H](CCCCN)C(=O)N[C@@H](CCCCN)C(=O)N[C@@H](CC(C)C)C(=O)N[C@@H](Cc1ccccc1)C(=O)N[C@@H](CCCCN)C(=O)N[C@@H](CCCCN)C(=O)N1CCC[C@H]1C(=O)N[C@@H](CCCNC(=N)N)C(=O)N[C@H](C(=O)N[C@H](C(=O)N1CCC[C@H]1C(=O)N[C@H](C(=O)N[C@@H](CO)C(=O)N[C@H](C(=O)N1CCC[C@H]1C(=O)N[C@@H](Cc1ccccc1)C(=O)O)[C@@H](C)CC)[C@@H](C)CC)[C@@H](C)CC)C(C)C)C(C)C)C(C)C
MIC (Escherichia coli; MIC after serum incubation; E24; 2 h, 37 °C, with: 25% mouse serum): 16 µg/mL (≈ 3.79 µM)

Nc1c2c(nc3sc4c(c13)CCCCC4)CCCC2
IC50 (HEp-2; cell growth or viability, ATP luminescence; 72 h): > 10.6 µM

CC(=O)NCCCC[C@@H]1NC(=O)[C@H](Cc2c[nH]c3c(C)cccc23)NC(=O)[C@H]([C@@H](C)O)NC(=O)[C@H](CC(N)=O)NC(=O)[C@@H](NC(C)=O)C(C)(C)SSC(C)(C)[C@@H](C(=O)N[C@@H](Cc2ccc(OCCN)cc2)C(=O)N[C@@H](Cc2ccc3ccccc3c2)C(=O)NC2(C(=O)N[C@@H](CCC(=O)O)C(=O)N[C@@H](CC(N)=O)C(=O)N[C@@H](Cc3cccnc3)C(=O)N(C)CC(N)=O)CCOCC2)NC1=O
efflux ratio (Broad substrate specificity ATP-binding cassette transporter ABCG2 (ABCG2, Homo sapiens, UniProt Q9UNQ0); transport, inhibitor; LLC-PK1 expressing ABCG2; 0.182 µM, 90 min, with: [3H]prazosin): 10.6

O=C1NC2(CC2)COc2ncc(F)cc2[C@H]2COCCN2c2ccn3ncc1c3n2
total cholesterol (Sprague-Dawley rat, female, serum; oral, 5 mg/kg/day, 4 weeks daily, end of treatment): 2.08 ± 0.37 mmol/L

Cc1ccc(OCCN(C)C)cc1C(=O)N[C@H](C)c1cc(-c2cncs2)nc2ccccc12
viability (Vero E6; 31.25 µM): 99.8% and 88.1%

O=C(O)c1cn2c(c(O)c1=O)C(=O)N(Cc1ccc(F)cc1F)C[C@@H]2C(c1ccccc1)c1ccccc1
CC50 (hamster cells): > 10 µM

Cc1ccc(N2CCN(C)C3(CC3)C2)cc1C(=O)N[C@H](C)c1cc(-c2cnn(C)c2)nc2ccccc12
viability (Vero E6; 125 µM): 11.5% and 14% and 10.2%

CN(C)CCCNC(=O)[C@@H]1NC(=O)[C@@H]2Cc3ccc(cc3)Oc3cc4cc(c3O)-c3ccc5c(c[nH]c5c3)C[C@@H](NC(=O)C(NC(=O)CCCCCN)c3ccc(O)cc3)C(=O)N[C@H](c3ccc(O)cc3)C(=O)N[C@H]4C(=O)N[C@@H](C(=O)N2C)c2ccc(cc2)Oc2cc1ccc2O (stereo partly shown)
hemolysis (human red blood cells; 32 µg/mL, 1 h, 37 °C, 1% DMSO): 0.47%

Cc1ccc(NC2(C)CN(C)C2)cc1C(=O)N[C@H](C)c1cc(-c2cnn(C)c2)nc2ccccc12
viability (Vero E6; 250 µM): 0.342% and 0% and 0.171%

Cc1ccn2c(-c3csc(Nc4ccccn4)n3)c(C)nc2c1
IC50 (Ba/F3; cytotoxicity; 3 days): > 1.25 µM

COc1ccc2c3c1O[C@H]1[C@H](O)CC[C@@]4(O)[C@@H](C2)N(C)CC[C@]314
Δlog K, saturation effect (pH-potentiometric titration; reference: O-methyl derivative): 0.48 log units

CC1(F)CN(C(=O)Cn2c(=O)c(C(=O)NCc3ccc(Cl)cc3)cc3nc(N4CCN(CCN)C4=O)cnc32)C1
selectivity index (Epstein-Barr virus; qPCR; retest 1; reference: CC50 over EC50): 92.6

Cc1nc2cccc(OCC(C)(C)C(=O)NC(C)C)c2c(N)c1C(=O)[O-].[Na+]
revertant colonies (Salmonella typhimurium; Ames preincubation; TA1535; 0.13 mg/plate, with: with rat liver S9): 14 ± 1 colonies/plate

O=C1CC[C@H]2[C@H]3Cc4ccc(O)c5c4[C@@]2(CCN3CCc2ccccc2)[C@H]1O5
Papp (PAMPA-BBB; porcine brain lipid; 500 µM, 4 h, pH 7.4, 1% DMSO): 35.9 ×10⁻⁶ cm/s

CCn1ccc(-c2cc([C@@H](C)NC(=O)c3cc(OC[C@@H]4CCCN4C)ccc3C)c3ccccc3n2)n1
viability (Vero E6; 7.812 µM): 97.6% and 106% and 98.8%

COc1ccc2c3c1O[C@H]1C(=O)CC[C@@]4(O)[C@@H](C2)N(CCc2ccccc2)CC[C@]314
logD (octanol/buffer; 1 h, pH 7.4): 2.38

CCn1ccc(-c2cc([C@@H](C)NC(=O)c3cc(OCCN(C)C)ccc3C)c3ccccc3n2)n1
viability (Vero E6; 15.62 µM): 82% and 96.2% and 81.6%

CCCCCC1=C(NCC)C(=O)C(C/C=C(\C)CCC=C(C)C)=C(O)C1=O
cytostasis (human peripheral lymphocytes; 40 µg/mL, 3 h, without S9, harvest 27 h): 56%

Cc1ccc(N2CCC(N(C)C)CC2)cc1C(=O)N[C@H](C)c1cc(-c2cnn(C)c2)nc2ccccc12
viability (Vero E6; 500 µM): 1.2% and 0.685% and 1.37%

Cn1nc(CCN)c(=O)c2c(=O)[nH]c(N)nc21
intracellular accumulation (Escherichia coli; LC-MS/MS; BW25113; 100 µM, 10 min, 37 °C): 4.56 µM

A few entries again:
Nc1c2c(nc3sc4c(c13)CCCCC4)CCCC2
IC50 (HEp-2; cell growth or viability, ATP luminescence; 72 h): > 10.6 µM

Cc1ccc(N2CCC(N(C)C)CC2)cc1C(=O)N[C@H](C)c1cc(-c2cnn(C)c2)nc2ccccc12
viability (Vero E6; 500 µM): 1.2% and 0.685% and 1.37%
